# Results pooled from the literature.
# A part holds a random share of what one study measured.

# Sample 1
# Target: RNA binding protein fox-1 homolog 2, RRM domain, GST-SBP tag (RBFOX2, Homo sapiens, UniProt O43251-10, residues 100-194)
# Technique: RNA Bind-n-Seq
# Molecule type: RNA
# Matrix: in vitro
# Tested at: 365 nM
# Setting: natural RNA segment, single round, ends assumed
# Relative to: no-protein control
# Direction: higher = stronger binding
# Shared flanks, not repeated: GGGAGUUCUACAGUCCGACGAUC … UGGAAUUCUCGGGUGCCAA
Strand,RBNS enrichment (R)
CGCCCAAGUGCCCUGUCCAGUGUCUGCUUGCCAUCCUGCCAGAACAGGCCCUCAAGCCCAAGAGCCAUCCCAGGCCUGUUCAGGCCUCAGCUAAGCCUCUCUUCAUCUGG,0.403
CAACCUAAAAUAUAUUUUCCAAGCUAUAUAUAAUAAUGAAAAAUAAAAACAUUACAUUUAUUUAUCCAGAAAACUGUGAUUUUAGGAUUACCUAACAUUGCUGGUAAAUA,0.512
AGGACACACUGGGUCACUGGCAUGGCCCAACAGCACAGCAAGAGGAGAGCUUUGUGCCUAUACCCAGUGUGUGGCUUUCCUCCAACCCCUUCCCAGACUUGUGAUCCAUU,0.643
GACAGUCCCUGGAUCCUACACAGCUAAUCCAAGCCAAUAAAGGGCUCUCACAAGUGGUUGUUCCUCAGUUCUGUUGUGCAGUGACUCUUGAGAUGCACCAUUCUCUACUG,0.414
AAGUGCAACCUUGUUUUAUCUUAUUGUUUUAUUUUUUAAGAAAGGAAAUCAUGUUCUUUUUUUAUAUCUCUAUAUAUAAGAUACAGAGUUGUUUGGUAAGGUUUGGGGUG,0.388

# Sample 2
# Target: Fragile X messenger ribonucleoprotein 1, C-terminal low-complexity region (Fmr1, Mus musculus, UniProt P35922)
# Technique: RNA Bind-n-Seq
# Molecule type: RNA
# Matrix: in vitro
# Tested at: 200 nM
# Setting: whole 134-nt RNA, ends assumed
# With: 150 mM LiCl
# Relative to: input library
# Direction: higher = stronger binding
# Library: 7-deaza-guanosine replaces G
# Shared flanks, not repeated: GGGAGUUCUACAGUCCGACGAUC … UGGAAUUCUCGGGUGUCAAGG
Strand,log2 enrichment
GGGACGUCAGCAUCGGCAUCAAGUGUGCCCCUGGAGUGGUAGGCCCCGCCGAAGCUGACAUCGACUUCGACAUCAUCCGCAAUGACAAUG,-3.25
ACCAUGCAGGUGGGCAUCUUUGGGAAGUGGGGCAAGGGGGGGAUAGGGAGGGGGGUAACACUUUGGGAACAGGUGGUCCCAGGUCGUUAC,0.862
GUCCUGUGCUACACAUCGUAUGUACCGAAUCGGGGUUUGGGGUGGGGUUUUUUUGGGGAAAGUAUUAUGUUACGCCGUUCGGAUCUGCAC,0.194
ACCAUGCAGGUGGGCAUCUUUGGUAAGUGGGGCAAGGGGGGGAUAGGGAGGGGGGUAACACUUUGGGAACAGGUGGUCCCAGGUCGUUUC,1.38
CACAGACAACACGCACCCACACAGACACAGAGGGAAGGGGUUGGGAUGGGGACAGGGUGCACAGCAGGGCAGGGUAGGACCCCAGCCCCU,0.245

# Sample 3
# Target: Histone acetyltransferase KAT6A, winged helix 1, GST fusion (KAT6A, Homo sapiens, UniProt Q92794, residues 1-85)
# Technique: protein binding microarray
# Molecule type: double-stranded DNA, one strand shown
# Matrix: in vitro
# Tested at: not given
# Setting: 8-mer, flanks averaged, mean of 2 arrays, mostly near background
# Relative to: not given
# Direction: higher = stronger binding
# Target sequence (chain): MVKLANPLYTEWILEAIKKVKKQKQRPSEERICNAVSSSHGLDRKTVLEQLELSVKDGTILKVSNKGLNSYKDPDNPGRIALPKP
Strand,E-score
TAGCCGCA,0.264
CAAGTCCG,0.119
CCAATGAG,-0.111
CAGATACA,-0.00792
GGTGTAAA,-0.129

# Other studies, line by line
Molecule,target,test,test system,setting,how to read,measurement,value
"PhoQ, residues 284 288 289 292 302 303 SQSLSM","PhoP, residues 12 14 15 18 19 IFFTR (Escherichia coli, UniProt P23836)","Sort-seq, refers to: YFP reporter",E. coli,"PhoQ-PhoP variant library, with: 10 µM Mg2+","relative to: high Mg2+ state, higher = stronger signaling",fold induction,7.8

# A few entries again (sample 3):
Strand,E-score
CCAATGAG,-0.111
TAGCCGCA,0.264
